# Experimental data gathered from unrelated publications.
# Numbered parts are unrelated; each lists some results of a single study. Substitutions count along the parent as printed.

# Sample 1
# Target: Phosphate system positive regulatory protein PHO4, full length, GST-tagged (PHO4, Saccharomyces cerevisiae, UniProt P07270, residues 1-312)
# Method: competition protein-binding microarray
# Form: double-stranded DNA, one strand shown
# Matrix: in vitro
# Concentration: 2 µM
# Notes: whole 60-bp probe, lowest competitor level
# With: Cbf1 competitor, 0.05 µM
# Direction: higher = stronger binding
# Shared flanks, not repeated: … GTCTTGATTCGCTTGACGCTGCTG
# Residues (chain): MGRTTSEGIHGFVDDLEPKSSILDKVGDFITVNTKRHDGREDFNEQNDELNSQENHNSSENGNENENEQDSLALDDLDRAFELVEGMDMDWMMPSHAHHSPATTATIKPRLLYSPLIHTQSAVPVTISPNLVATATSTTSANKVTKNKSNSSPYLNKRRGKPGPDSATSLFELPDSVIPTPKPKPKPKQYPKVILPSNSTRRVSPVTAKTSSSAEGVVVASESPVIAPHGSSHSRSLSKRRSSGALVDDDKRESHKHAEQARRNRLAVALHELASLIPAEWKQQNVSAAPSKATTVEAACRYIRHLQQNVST
Sequence,fluorescence intensity [a.u.]
ATAAAACAACGGCCTCCCGTGCCGAATTACCTTCCT,6470
ACTCGAATGACGAACTACCTGATCCCCTTCTTATTG,3570
AAATTACTAAGTTTTCACGTGAGTTACCCCGTATGA,10000
TATACAGCTTTGCCAAGCGTGCGGAATAGGGAATAA,6820
TCTCAATCTCCGTCCAATGTGACGCCCACTACGATT,3740
CCAATTGCAAAATATCACCTGGGACGACTTCGTTGG,3640
CTTTCCCGATCTTGCGGCGTGGGTGTAGCACATTTG,9440
AAGAAGAGGCAGATTACCGTGATGGTATAGAGCCCA,3140
CGGGGTTAAGTTTGGCGCGTGGGTGGCTTGCAGCAG,11200
TGCGTTCTATGCGAAAACGTGCTAATTTAATATATA,12100

# Sample 2
# Target: CCNE1, cyclin fold, Cln2 fusion (human)
# Method: yeast growth competition, sequencing
# Matrix: yeast
# Notes: strong parent motif
# Baseline: not given
# Direction: higher = stronger binding
# Parent: DBF4B docking peptide (human); LGYLYLLLTQSLW
Change,normalised enrichment score
LGYLYLLATQSLW [L8A],1.71
AGYLYLLLTQSLW [L1A],1.45
LGYLYLLLTQSLA [W13A],0.655
LGYLYLLLTQSAW [L12A],1.08
LGYLYALLTQSLW [L6A],0.925
LGALYLLLTQSLW [Y3A],0.854

# Sample 3
# Target: Sal-like protein 4, full length isoform A (SALL4, Homo sapiens, UniProt Q9UJQ4, residues 1-1053)
# UniProt Q9UJQ4, sequence (whole entry, looked up): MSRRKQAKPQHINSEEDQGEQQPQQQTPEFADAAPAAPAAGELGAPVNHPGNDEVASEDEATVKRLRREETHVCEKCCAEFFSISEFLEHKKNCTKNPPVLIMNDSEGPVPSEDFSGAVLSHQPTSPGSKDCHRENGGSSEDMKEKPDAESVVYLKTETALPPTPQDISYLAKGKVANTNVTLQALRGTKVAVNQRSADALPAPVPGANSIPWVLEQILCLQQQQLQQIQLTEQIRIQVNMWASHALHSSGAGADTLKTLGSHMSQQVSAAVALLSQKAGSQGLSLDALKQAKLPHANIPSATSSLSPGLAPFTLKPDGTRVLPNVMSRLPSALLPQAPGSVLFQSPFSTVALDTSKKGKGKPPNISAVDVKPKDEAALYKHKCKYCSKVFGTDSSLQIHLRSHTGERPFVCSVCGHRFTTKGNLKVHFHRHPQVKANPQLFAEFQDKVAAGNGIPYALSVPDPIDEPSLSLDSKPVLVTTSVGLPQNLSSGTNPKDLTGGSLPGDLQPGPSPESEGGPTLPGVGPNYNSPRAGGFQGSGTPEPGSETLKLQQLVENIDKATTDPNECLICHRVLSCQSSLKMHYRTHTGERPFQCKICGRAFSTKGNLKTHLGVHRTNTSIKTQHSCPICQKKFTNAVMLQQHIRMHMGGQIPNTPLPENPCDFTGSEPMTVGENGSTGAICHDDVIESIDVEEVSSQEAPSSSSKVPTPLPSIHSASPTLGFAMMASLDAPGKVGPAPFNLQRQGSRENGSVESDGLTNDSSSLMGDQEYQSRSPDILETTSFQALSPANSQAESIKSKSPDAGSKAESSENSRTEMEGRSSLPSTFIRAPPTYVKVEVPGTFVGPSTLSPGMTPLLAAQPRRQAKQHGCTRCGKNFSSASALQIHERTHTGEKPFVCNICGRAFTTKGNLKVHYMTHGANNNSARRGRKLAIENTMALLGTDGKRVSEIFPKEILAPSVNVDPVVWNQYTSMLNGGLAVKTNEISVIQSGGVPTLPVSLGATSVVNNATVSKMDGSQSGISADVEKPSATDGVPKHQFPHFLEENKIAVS
# Method: universal PBM
# Form: double-stranded DNA, one strand shown
# Matrix: in vitro
# Concentration: 600 nM
# Notes: 8-mer, flanks averaged, mean of replicates
# Direction: higher = stronger binding
Sequence,E-score
GACCCATC,-0.178
AAGGGGTC,-0.174
CTCCGGCA,-0.213
TGAGTAAA,0.0532
ACGGTCCC,-0.31
CATTGCTC,-0.14
AAGACACA,0.0465
GCTGGATA,0.0981
CTCTCCAG,-0.285
ATAGGCCC,-0.139
CCTTCAGC,-0.271
CTCAGCCC,-0.308
AGTGATCC,-0.0928
CAGACCGC,-0.267
CAGTTTTA,0.0938
AACTTACA,0.239
TAGCGCCA,-0.133
ATTTGAAC,0.202
GATAGGAC,-0.135
ACGATAGC,0.0452
AAAATCAC,0.205
GCGCAAGA,-0.023
CGCGCACA,-0.182
AGGCGTTC,-0.273
AAGGACTG,-0.169

# Sample 4
# Target: Ras GTPase-activating protein-binding protein 1, full length (G3BP1, Homo sapiens, UniProt Q13283)
# UniProt Q13283, sequence (whole entry, looked up): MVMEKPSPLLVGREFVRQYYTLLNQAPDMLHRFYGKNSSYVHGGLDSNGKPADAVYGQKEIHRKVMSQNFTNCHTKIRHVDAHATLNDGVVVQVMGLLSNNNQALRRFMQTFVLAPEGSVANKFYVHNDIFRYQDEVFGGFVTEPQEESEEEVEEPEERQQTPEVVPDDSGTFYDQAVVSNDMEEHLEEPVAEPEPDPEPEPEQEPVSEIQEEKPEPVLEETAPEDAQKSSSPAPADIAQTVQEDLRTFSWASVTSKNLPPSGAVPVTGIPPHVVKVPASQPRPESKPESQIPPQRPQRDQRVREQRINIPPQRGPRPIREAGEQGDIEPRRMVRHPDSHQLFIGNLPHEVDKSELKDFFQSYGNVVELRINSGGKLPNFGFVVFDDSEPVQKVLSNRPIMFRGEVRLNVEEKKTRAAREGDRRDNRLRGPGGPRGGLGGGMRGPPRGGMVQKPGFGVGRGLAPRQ
# Method: RNA Bind-n-Seq
# Form: RNA
# Matrix: in vitro
# Concentration: 200 nM
# Notes: whole 134-nt RNA, ends assumed
# With: 150 mM KCl
# Baseline: input library
# Direction: higher = stronger binding
# Shared flanks, not repeated: GGGAGUUCUACAGUCCGACGAUC … UGGAAUUCUCGGGUGUCAAGG
Sequence,log2 enrichment
GUCCUGUGCUACACAUCGUAUGUACCGAAUCGGGUUUUUGGGGUUUUUGGUUUUUGGGGAAAGUAUUAUGUUACGCCGUUCGGAUCUGCA,-0.511
CUCAAGUCCUGUGCUACACAUCGUAUGUACCGAAUCGGAAGGAAGGGGAAGGGAAAGUAUUAUGUUACGCCGUUCGGAUCUGCACUUCCA,-0.211
GCAGGAAGUAAAAACAAAUAAAAAUGCUUCGGAUAGUGGCAGGGGUGGGGGUUGCUAAGGAAAGGGUGGGAUGGGAGUGGGUAAAGAGUU,1.04
UGUGCUACACAUCGUAUGUACCGAAUCGGGGAAAAAAAGGGAAAAAAAGGGGAAAAAAAGGGGAAAGUAUUAUGUUACGCCGUUCGGAUC,-0.347
UCCUGUGCUACACAUCGUAUGUACCGAAUCGGGGAAAGGGGAAAAAAAGGGGUUUGGGGAAAGUAUUAUGUUACGCCGUUCGGAUCUGCA,0.721
ACCAUGCAGGUGGGCAUCUUUGGGAAGUGGGGCAAGGGGGGGAUAGGGAGGGGGGUAACACUUUGGGAACUGGUGGUCCCAGGUCGUUUC,1.01
GCAGGAAGUAAAAACAAAUGGAAAUGCUUCGGAUAGUGGCAGGGAUGGGGGUUGCUAAGGAAAGGGUGGGAUGGGAGUGGGUAAAGAGUU,1.01
UCCUGUGCUACACAUCGUAUGUACCGAAUCGGGUUUUUGGGUUUUUGGGGUUUUUGGGGAAAGUAUUAUGUUACGCCGUUCGGAUCUGCA,0.117
AAGUCCUGUGCUACACAUCGUAUGUACCGAAUCGGUUUUUUUGGUUUGGAAAAAGGAAAGUAUUAUGUUACGCCGUUCGGAUCUGCACUU,-1.57

# A few entries again (sample 1):
Sequence,fluorescence intensity [a.u.]
TCTCAATCTCCGTCCAATGTGACGCCCACTACGATT,3740
TATACAGCTTTGCCAAGCGTGCGGAATAGGGAATAA,6820
AAATTACTAAGTTTTCACGTGAGTTACCCCGTATGA,10000
ACTCGAATGACGAACTACCTGATCCCCTTCTTATTG,3570
TGCGTTCTATGCGAAAACGTGCTAATTTAATATATA,12100
AAGAAGAGGCAGATTACCGTGATGGTATAGAGCCCA,3140
